Experimental data from different studies.
Lines come from different studies, so protocols differ.

| Substance | target or system | test | test system | conditions | measurement | result |
| --- | --- | --- | --- | --- | --- | --- |
| Cn1cnc(Cn2c(=O)[nH]/c(=N\c3cc4cn(C)nc4cc3Cl)n(Cc3cc(F)c(F)cc3F)c2=O)n1 | – | – | human, normal renal function | oral, 375 mg | anaemia TEAE, Mild severity | 0% |
| Nc1ncnc2c([C@@H]3N[C@H](CO)[C@@H](O)[C@H]3O)c[nH]c12 | Chikungunya virus | viral replication | HeLa, AF 15561 | 3.1 µM | inhibition | 11.1% |
| IATNGPLKVGGSCVL | human CD4 T cells | AIM | peptide | – | responding donors | 8% |
| O=C(/C=C/c1ccc(O)c(O)c1/C=C/c1ccc(O)c(O)c1)O[C@H](Cc1ccc(O)c(O)c1)C(=O)O | Replicase polyprotein 1ab, main protease (rep, Severe acute respiratory syndrome coronavirus 2, UniProt P0DTD1) | reporter gene (mKate2), inhibitor | – | 20 µM | inhibition | -1.15% |
| CC[C@H](C)[C@H](NC(=O)[C@H](CC(C)C)NC(=O)[C@H](Cc1c[nH]c2ccccc12)NC(=O)[C@H](CCC(N)=O)NC(=O)[C@@H](NC(=O)[C@H](Cc1ccccc1)NC(=O)[C@H](C)NC(=O)[C@H](CCCCNC(=O)COCCOCCNC(=O)COCCOCCNC(=O)CC[C@H](NC(=O)CCCCCCCCCCCCCCCCCCC(=O)O)C(=O)O)NC(=O)[C@H](CCC(N)=O)NC(=O)[C@H](C)NC(=O)[C@@H](NC(=O)[C@H](CCCCN)NC(=O)[C@H](CC(=O)O)NC(=O)[C@H](CC(C)C)NC(=O)C(C)(C)NC(=O)[C@@H](NC(=O)[C@H](CO)NC(=O)[C@H](Cc1ccc(O)cc1)NC(=O)[C@H](CC(=O)O)NC(=O)[C@H](CO)NC(=O)[C@@H](NC(=O)[C@H](Cc1ccccc1)NC(=O)[C@@H](NC(=O)CNC(=O)[C@H](CCC(=O)O)NC(=O)C(C)(C)NC(=O)[C@@H](N)Cc1ccc(O)cc1)[C@@H](C)O)[C@@H](C)O)[C@@H](C)CC)[C@@H](C)CC)C(C)C)C(=O)N[C@@H](C)C(=O)NCC(=O)NCC(=O)N1CCC[C@H]1C(=O)N[C@@H](CO)C(=O)N[C@@H](CO)C(=O)NCC(=O)N[C@@H](C)C(=O)N1CCC[C@H]1C(=O)N1CCC[C@H]1C(=O)N1CCC[C@H]1C(=O)N[C@@H](CO)C(N)=O | – | – | healthy human | 0.25 mg, single ascending dose | feeling hot | 0% |
| FGDQELIRQGTDYKH | human CD4 T cells | AIM | peptide | – | responding donors | 8% |

Repeated from above:
| Substance | target or system | test | test system | conditions | measurement | result |
| --- | --- | --- | --- | --- | --- | --- |
| Cn1cnc(Cn2c(=O)[nH]/c(=N\c3cc4cn(C)nc4cc3Cl)n(Cc3cc(F)c(F)cc3F)c2=O)n1 | – | – | human, normal renal function | oral, 375 mg | anaemia TEAE, Mild severity | 0% |
